Measured values from different studies.
Numbered parts are unrelated; each lists some results of a single study.
Sequence of UniProt Q9H2X6 (whole entry, looked up): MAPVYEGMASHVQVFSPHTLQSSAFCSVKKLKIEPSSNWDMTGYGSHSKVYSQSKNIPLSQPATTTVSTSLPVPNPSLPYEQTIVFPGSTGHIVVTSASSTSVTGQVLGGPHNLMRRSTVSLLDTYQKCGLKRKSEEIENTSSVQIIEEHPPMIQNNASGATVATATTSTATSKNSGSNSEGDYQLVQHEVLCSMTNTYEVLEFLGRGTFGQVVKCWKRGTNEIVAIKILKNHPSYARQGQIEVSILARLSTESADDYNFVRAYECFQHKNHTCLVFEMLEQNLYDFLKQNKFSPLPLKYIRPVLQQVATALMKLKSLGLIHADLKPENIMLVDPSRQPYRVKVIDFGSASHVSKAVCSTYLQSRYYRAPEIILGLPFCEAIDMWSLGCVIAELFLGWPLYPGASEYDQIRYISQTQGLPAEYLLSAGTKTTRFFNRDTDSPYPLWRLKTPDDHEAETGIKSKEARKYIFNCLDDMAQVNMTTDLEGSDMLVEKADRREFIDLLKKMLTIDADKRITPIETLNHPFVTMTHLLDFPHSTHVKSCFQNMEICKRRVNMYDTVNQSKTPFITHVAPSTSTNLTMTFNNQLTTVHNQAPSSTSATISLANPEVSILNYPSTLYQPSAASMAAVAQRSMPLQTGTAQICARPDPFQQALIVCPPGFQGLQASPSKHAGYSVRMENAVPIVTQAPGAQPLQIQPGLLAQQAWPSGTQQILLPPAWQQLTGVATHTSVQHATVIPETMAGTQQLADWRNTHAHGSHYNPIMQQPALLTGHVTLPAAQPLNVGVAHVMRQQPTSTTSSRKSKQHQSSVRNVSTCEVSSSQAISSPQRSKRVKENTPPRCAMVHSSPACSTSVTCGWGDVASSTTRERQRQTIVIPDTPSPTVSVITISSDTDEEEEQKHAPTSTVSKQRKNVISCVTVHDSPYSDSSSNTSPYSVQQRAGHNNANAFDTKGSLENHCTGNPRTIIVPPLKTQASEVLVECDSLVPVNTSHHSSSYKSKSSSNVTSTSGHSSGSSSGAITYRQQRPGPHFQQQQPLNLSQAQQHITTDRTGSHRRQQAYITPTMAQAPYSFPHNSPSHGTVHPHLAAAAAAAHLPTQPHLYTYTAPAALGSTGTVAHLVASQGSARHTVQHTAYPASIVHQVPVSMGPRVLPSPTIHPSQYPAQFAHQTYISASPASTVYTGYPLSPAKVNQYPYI
Sequence of UniProt P10721 (whole entry, unmodified, looked up): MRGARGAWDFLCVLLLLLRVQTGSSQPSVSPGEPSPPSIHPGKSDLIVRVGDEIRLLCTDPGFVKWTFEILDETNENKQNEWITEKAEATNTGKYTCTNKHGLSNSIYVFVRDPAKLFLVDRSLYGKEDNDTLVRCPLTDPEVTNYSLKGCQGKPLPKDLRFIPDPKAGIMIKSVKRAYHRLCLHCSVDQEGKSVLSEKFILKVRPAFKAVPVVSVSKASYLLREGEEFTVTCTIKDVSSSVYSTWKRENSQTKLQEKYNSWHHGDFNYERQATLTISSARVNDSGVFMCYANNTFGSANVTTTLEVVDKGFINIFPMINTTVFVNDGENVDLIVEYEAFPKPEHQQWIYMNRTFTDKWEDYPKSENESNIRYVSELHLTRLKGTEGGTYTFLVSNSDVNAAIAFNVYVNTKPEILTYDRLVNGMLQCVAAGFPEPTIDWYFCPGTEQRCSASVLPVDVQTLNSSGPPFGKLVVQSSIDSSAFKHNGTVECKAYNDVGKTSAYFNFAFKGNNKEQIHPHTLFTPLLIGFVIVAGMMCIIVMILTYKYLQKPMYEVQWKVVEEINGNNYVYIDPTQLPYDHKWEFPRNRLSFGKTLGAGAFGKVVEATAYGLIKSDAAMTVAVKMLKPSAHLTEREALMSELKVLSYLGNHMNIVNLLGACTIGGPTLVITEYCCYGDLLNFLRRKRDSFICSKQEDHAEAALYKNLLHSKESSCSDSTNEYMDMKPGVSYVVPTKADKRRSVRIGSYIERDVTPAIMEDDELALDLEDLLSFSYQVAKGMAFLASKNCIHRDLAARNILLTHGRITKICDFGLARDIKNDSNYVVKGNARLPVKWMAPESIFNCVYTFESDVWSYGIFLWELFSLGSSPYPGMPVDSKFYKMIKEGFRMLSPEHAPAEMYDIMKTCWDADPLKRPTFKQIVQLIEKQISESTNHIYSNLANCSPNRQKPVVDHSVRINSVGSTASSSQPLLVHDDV
Sequence of UniProt Q08345 (whole entry, looked up): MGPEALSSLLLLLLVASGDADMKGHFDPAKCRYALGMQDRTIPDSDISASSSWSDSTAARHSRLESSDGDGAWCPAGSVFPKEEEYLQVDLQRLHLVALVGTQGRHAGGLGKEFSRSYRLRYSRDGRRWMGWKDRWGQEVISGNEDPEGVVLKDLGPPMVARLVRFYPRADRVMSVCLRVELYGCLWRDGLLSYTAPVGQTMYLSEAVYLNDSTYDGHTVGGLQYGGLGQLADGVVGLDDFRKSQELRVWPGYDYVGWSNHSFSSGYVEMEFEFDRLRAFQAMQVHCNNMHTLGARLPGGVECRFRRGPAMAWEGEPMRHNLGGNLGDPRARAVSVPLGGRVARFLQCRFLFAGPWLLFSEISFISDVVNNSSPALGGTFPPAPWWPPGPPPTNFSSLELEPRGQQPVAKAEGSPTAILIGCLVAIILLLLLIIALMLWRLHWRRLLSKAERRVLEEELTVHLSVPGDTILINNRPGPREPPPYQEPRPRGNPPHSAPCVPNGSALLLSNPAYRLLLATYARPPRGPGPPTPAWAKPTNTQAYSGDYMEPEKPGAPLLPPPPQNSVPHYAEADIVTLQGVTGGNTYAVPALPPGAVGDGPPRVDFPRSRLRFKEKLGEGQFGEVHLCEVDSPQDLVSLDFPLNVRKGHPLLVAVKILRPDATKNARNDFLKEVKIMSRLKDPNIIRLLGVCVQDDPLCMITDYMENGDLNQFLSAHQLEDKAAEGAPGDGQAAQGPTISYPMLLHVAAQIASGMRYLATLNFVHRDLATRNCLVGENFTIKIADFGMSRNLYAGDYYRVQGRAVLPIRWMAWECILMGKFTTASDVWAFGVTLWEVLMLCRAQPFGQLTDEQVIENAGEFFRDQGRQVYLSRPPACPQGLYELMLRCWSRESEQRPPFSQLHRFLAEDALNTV
Sequence of UniProt Q02763 (whole entry, looked up): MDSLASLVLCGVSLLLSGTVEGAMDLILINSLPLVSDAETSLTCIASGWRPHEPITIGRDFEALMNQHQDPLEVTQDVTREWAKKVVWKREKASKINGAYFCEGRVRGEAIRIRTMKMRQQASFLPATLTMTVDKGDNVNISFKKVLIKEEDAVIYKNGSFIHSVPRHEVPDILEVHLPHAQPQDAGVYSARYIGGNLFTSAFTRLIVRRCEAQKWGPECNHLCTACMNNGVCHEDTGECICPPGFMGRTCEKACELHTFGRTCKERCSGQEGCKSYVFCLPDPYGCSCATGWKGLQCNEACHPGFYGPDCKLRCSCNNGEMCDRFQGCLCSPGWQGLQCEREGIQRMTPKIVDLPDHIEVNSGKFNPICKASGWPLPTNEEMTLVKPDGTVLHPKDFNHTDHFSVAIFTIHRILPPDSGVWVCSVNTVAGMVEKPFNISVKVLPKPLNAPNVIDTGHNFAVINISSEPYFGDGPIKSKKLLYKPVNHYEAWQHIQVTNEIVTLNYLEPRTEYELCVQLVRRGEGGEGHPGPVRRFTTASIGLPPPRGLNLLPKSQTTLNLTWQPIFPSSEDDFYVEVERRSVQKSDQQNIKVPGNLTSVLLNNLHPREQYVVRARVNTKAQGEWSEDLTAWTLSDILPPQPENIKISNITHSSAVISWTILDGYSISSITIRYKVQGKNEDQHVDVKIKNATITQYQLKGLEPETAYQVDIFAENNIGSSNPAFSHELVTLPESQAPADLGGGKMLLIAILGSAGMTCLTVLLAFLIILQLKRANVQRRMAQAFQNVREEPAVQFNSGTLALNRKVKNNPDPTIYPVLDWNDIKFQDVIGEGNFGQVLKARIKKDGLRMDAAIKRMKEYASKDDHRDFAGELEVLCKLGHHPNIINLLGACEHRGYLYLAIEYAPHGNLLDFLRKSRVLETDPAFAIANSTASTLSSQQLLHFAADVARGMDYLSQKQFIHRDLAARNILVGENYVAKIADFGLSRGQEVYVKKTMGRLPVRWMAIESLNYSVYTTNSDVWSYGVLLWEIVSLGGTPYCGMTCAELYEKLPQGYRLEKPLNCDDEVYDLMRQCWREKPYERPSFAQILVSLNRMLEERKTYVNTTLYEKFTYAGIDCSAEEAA
Sequence of UniProt O75676 (whole entry, looked up): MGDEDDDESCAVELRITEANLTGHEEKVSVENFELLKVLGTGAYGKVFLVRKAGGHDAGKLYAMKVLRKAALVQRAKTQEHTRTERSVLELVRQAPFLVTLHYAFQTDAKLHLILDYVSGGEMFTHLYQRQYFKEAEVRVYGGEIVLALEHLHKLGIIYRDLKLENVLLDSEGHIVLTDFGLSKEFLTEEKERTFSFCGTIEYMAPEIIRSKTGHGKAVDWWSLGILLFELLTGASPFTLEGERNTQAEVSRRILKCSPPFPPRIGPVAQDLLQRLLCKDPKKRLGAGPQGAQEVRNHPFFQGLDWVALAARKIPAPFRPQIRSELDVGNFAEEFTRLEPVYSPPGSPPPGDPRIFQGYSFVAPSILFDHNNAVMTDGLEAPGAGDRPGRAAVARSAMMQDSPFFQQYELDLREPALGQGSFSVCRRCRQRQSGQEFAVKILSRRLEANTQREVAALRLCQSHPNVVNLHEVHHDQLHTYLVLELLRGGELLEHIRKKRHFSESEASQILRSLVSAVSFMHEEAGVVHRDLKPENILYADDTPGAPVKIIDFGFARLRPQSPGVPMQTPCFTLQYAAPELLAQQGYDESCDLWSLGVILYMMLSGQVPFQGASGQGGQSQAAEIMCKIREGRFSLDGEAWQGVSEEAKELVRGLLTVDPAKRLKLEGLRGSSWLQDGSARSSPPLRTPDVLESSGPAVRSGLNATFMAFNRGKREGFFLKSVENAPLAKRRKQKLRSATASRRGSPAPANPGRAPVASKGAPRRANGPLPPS

Series 1
Target: TAR DNA-binding protein 43, full length, His tag (TARDBP, Homo sapiens, UniProt Q13148, residues 1-414)
Method: RNA Bind-n-Seq
Form: RNA
Sample: in vitro
Tested at: 20 nM
Setting: 6-mer, flanks averaged, single round
Together with: 150 mM KCl
Baseline: input library
Reading: higher = stronger binding
| Oligonucleotide | 6-mer enrichment (R) |
| --- | --- |
| AGGUUC | 0.665 |
| AACCUA | 0.598 |
| AAUGGA | 0.91 |
| CACAAU | 0.666 |
| UGGGAC | 1.95 |
| GUAUUU | 0.687 |
| ACCAGA | 0.712 |
| GGUGGC | 3.24 |

Series 2
Target: RNA binding protein fox-1 homolog 2, RRM domain, GST-SBP tag (RBFOX2, Homo sapiens, UniProt O43251-10, residues 100-194)
Method: RNA Bind-n-Seq
Form: RNA
Sample: in vitro
Tested at: 365 nM
Setting: natural RNA segment, single round, ends assumed
Baseline: no-protein control
Reading: higher = stronger binding
All sequences stand within: GGGAGUUCUACAGUCCGACGAUC … UGGAAUUCUCGGGUGCCAA
Residues (chain): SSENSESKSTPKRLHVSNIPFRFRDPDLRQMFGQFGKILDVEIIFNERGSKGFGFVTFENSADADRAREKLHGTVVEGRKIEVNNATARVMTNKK
| Oligonucleotide | RBNS enrichment (R) |
| --- | --- |
| UAUACCUUGCUUAUUAAAUGAGCGACUUAAAAUGAUUGAAAAUAAUGCUGUUCUUUAGUAGCAACUAAAAUGUGUCUUGCUGUCAUUUAUAUUCCUUUUCCCAGGAAAGA | 0.267 |
| GUCCCUCUGUUCACUACCCUCUUGCUCUGAGGCACGCUGGUUCUGGAGUAUAUUUCCACCUAUGAUGACAUAGCUAGACCUCCUUUUACCAACAAAACUCCAGGUUGAGA | 0.214 |
| AGACCCGUUUGAUAGUACUUUCAGUUUUUGGCAUUUGGGGUACUUUGAAAUCCAACUUGUUUUUAAAUUCCAUGUUGGUGCCAUAGAUGUAGUUUUUACAGCCUGAAAAU | 0.395 |
| AAUUUAAUGCCCUAACUCUCUUAUUAAGGAGAAAUAGAAAAGAAGAAAUUUAUAAUGAAAAGAAGAUGAAUUUCAUUAUGUAAACGCUCAGGCAUGACUACGCUGUUUGA | 0.699 |
| GCAACUGUAGUCAUCUUAAAGGCUUCUCAUCCACUGUGCUUCUUAAUGUGUAAUUAAAGUGAGGAGAAAUUAAAUACUCUGAGGGCGUUUUAUAUAAUAAAUUCGUGAAG | 0.291 |
| GUACUAGAACCAGAGCAAUCCACUGAUUCAUAUUGGAUCCCAAGUAUACCUCCUGCUGGUAUCAGGUGUCAGAAGGGACAUUUGUUAGAUGCCUUACUUGACCUUCCUAG | 0.333 |
| UCACUACAGAGAUGCUACUGAAGAGAGACGGUAGUACAGCUCUCUUGCAGUACUGCCUGCCGUUGGUAAGCAGUGGCAUCCGAAGGCAGGAACCCUGAUGAGCCCUCACG | 0.166 |
| UUAUUGCUACUUGAUUUUGUUAUGCAAGUUAGAUUUCAGAAGAAUAGAUUUUAAAACACUUAACCAAGCCAUUACAUCUUAAAAACAAAACAAGUAGCAUACAUUUUGUA | 1.06 |

Series 3
Structure (SMILES): CS(=O)(=O)NCC[C@H](NC(=O)c1cncc2c1cnn2-c1ccc(F)cc1)c1ccnc(S(C)(=O)=O)c1
Observed: cell-free assay
Method: competition with immobilised ligand
Tested at: 1 µM
| target | remaining binding [%] |
| --- | --- |
| HIPK2 (Homo sapiens, UniProt Q9H2X6) | 100 |
| NEK10 (Homo sapiens, UniProt Q6ZWH5) | 100 |
| CIT (Homo sapiens, UniProt O14578) | 73 |
| Ribosomal protein S6 kinase alpha-4, C-terminal kinase domain (RPS6KA4, Homo sapiens, UniProt O75676) | 100 |
| PIK3C2B (Homo sapiens, UniProt O00750) | 78 |
| DDR1 (Homo sapiens, UniProt Q08345) | 92 |
| RAF1 (Homo sapiens, UniProt P04049) | 76 |
| KIT (Homo sapiens, UniProt P10721, L576P) | 100 |
| TNK1 (Homo sapiens, UniProt Q13470) | 100 |

Further values, each from its own experiment
| Structure (SMILES) | target | observed | mode | tested at | baseline | measurement | result |
| --- | --- | --- | --- | --- | --- | --- | --- |
| COc1ccc(Cl)cc1NC(=O)Nc1cc(C)nc2ccccc12 | Angiopoietin-1 receptor (TEK, Homo sapiens, UniProt Q02763) | enzyme activity | inhibitor | 0.5 µM | control | remaining activity | 96.8% |
